Experimental data of several laboratories.
Compare with care: the assays were run in different laboratories. “And” joins repeats or separate records; there may be more than shown. ≈ marks a conversion by molar mass, not a printed value.

`c1ccc(C(NCCNC(c2ccccc2)c2ccccc2)c2ccccc2)cc1` has an inhibition of 1% (kainate receptor, rat; binding; 10 µM, Eurofins selectivity panel).
Under “LS mean viral load change”, `CS(=O)(=O)CCCn1c(Cn2c(=O)n(CC(F)(F)F)c3ccncc32)cc2cc(Cl)ccc21` is recorded as -4.02 log10 copies/mL (respiratory syncytial virus; RT-qPCR; hospitalized infants 1-24 months, nasal swab; oral, 1-9 mg/kg daily, day 7, all doses combined; reference: baseline).
`O=C(NNc1ccc(F)c(F)c1)c1nnc(C23CC4CC(CC(C4)C2)C3)o1` gave an inhibition of 100% (Fusarium graminearum; fungal growth, inhibitor; 50 µg/mL).
With `CC(C)N1CCC(NC2CCN(c3cccc(-c4cc5cc(F)ccc5[nH]4)c3)CC2)CC1` the CC50 was 5.75 µM (DU-145).
`CC[C@H](C)[C@@H]1NC(=O)[C@@H]2CCCN2C(=O)[C@H](CC(C)C)NC(=O)[C@H](CC(C)C)NC(=O)CNC(=O)[C@@H](NC(=O)[C@@H](NC(=O)[C@H](CC(=O)O)NC(=O)CNC(=O)[C@@H](NC(=O)[C@H](C)NC(=O)CNC(=O)[C@H](CCCCN)NC(=O)[C@H](CC(C)C)NC(=O)[C@H](CC(C)C)NC(=O)[C@H](CCCCN)NC(=O)CNC(=O)[C@@H](NC(=O)[C@@H](N)CC(C)C)C(C)C)C(C)C)C(C)C)CSSC[C@@H](C(=O)O)NC1=O` — result for “log2 fold change”: -1.85 (RNA-seq, measured: Zbp1; mouse, traumatic brain injury model, frontal cortex and hippocampus; dose not given; reference: TBI alone).
`O=C(NNc1cc(F)ccc1F)c1nnc(CC23CC4CC(CC(C4)C2)C3)o1` has an inhibition of 100% (Fusarium graminearum; fungal growth, inhibitor; 50 µg/mL).
`CC[C@H](C)[C@H](NC(=O)[C@H](C)NC(=O)[C@H](CCCCN)NC(=O)[C@H](CC(C)C)NC(=O)[C@H](C)NC(=O)[C@@H](NC(=O)[C@H](Cc1c[nH]cn1)NC(=O)[C@H](CC(C)C)NC(=O)[C@@H](NC(=O)[C@@H](NC(=O)[C@H](CCCCN)NC(=O)[C@H](C)NC(=O)[C@H](C)NC(=O)[C@H](CO)NC(=O)[C@H](CCCCN)NC(=O)[C@H](Cc1ccccc1)NC(=O)[C@@H](NC(=O)[C@H](CCCCN)NC(=O)[C@H](CC(C)C)NC(=O)[C@H](Cc1ccccc1)NC(=O)[C@H](CO)NC(=O)[C@H](CCCCN)NC(=O)[C@H](Cc1c[nH]c2ccccc12)NC(=O)[C@H](CCCCN)NC(C)=O)[C@@H](C)O)[C@@H](C)O)C(C)C)[C@@H](C)O)C(=O)N[C@@H](CO)C(=O)N[C@@H](CO)C(N)=O` has an MBC50 of 2 mg/L (≈ 0.682 µM) (Acinetobacter baumannii; ATCC 19606).
`C[C@H](C(=O)N[C@H]1COc2ccccc2[C@@H]1S(C)(=O)=O)c1ccc(F)cc1` gave an inhibition of 3% (SKCa potassium channel, rat; binding; 10 µM, Eurofins selectivity panel).
`CN1CCN(C2(CNC3CCN(c4cccc(-c5cc6cc(F)ccc6[nH]5)c4)CC3)CCC2)CC1` has a GI50 of 1.75 µM (HOP-62).
For `CN1CCN(S(=O)(=O)c2cc([N+](=O)[O-])ccc2N(CCOS(C)(=O)=O)CCOS(C)(=O)=O)CC1`, “EFS ratio (T/C)” read 7.7 (NSG mice, sample BH PDX; intraperitoneal, 25 mg/kg weekly x3; reference: treated over vehicle).
The toxicity of `COc1ccc(-n2nc(C(C)=O)s/c2=N\N=C(/C)c2ccc(NC(C)=O)cc2)cc1` is reported as 94.8% (HepG2; 1.25 µM).
With `C=C1CC[C@@]2(O)[C@H]3Cc4ccc(O)c5c4[C@@]2(CCN3CC2CC2)[C@H]1O5` the trans-stimulation ratio was 0.58 (human H+/organic cation antiporter; hCMEC/D3; 250 µM, 2 min, with: 1 µM DPH preloading 30 min; reference: control).
With `C[C@H]1O[C@@H](O[C@H]2CC[C@@]3(C)[C@@H](CC[C@]4(C)[C@@H]3C=C[C@]35OC[C@@]6(CCC(C)(C)C[C@H]63)[C@@H](O)C[C@]54C)[C@]2(C)CO)[C@H](O)[C@@H](O[C@@H]2O[C@H](CO)[C@@H](O)[C@H](O)[C@H]2O)[C@H]1O` the protein level was 0.475 and 0.507 and 0.541 (Western blot, measured: mTOR; mouse, hepatic SIRT1 knockdown (AAV8-TBG), liver; dose not given, high dose, unit not given, with: ethanol; reference: β-actin).
`COc1cc(CCC[P+](c2ccccc2)(c2ccccc2)c2ccccc2)c(OC)c2c1OCO2.[I-]` has a GI50 of -5.55 log M (EKVX; SRB).
`CCCCC1(CCCC)CN(c2ccccc2)c2cc(SC)c(OCC(=O)N[C@@H](C(=O)NCC(=O)O)c3ccccc3)cc2S(=O)(=O)C1` gave a serum LDL-C of 89.8 mg/dL (measured: LDL cholesterol; human, serum; 10 mg once daily, day 11).
For `COc1c(CCC[P+](c2ccccc2)(c2ccccc2)c2ccccc2)cc2c(c1OC)OCO2.[I-]`, the TGI was -5.55 log M (SK-MEL-5; SRB).
`Nc1ncnc2c1ncn2[C@@H]1O[C@@H]2COP(=O)(O)O[C@H]3[C@@H](O)[C@H](n4cnc5c(=O)[nH]cnc54)O[C@@H]3COP(=O)(O)O[C@H]2[C@H]1O` has a fold enrichment of 2.97 (West Nile virus; RNA sequencing Reactome analysis, measured: Mitotic Anaphase (R-HSA-68882); HFF-1; concentration not given, upregulated pathways, with: West Nile virus infection; reference: WNV-infected without compound).
